# Experimental data collected from several papers.
# “And” joins repeats or separate records; there may be more than shown. ± marks the error that the study gave.
Structure (SMILES),test,system,setting,scale,endpoint,result
CCc1cc(C(=O)NC)c2nccc(N3CCc4c(cc(Cn5ccnc5)cc4-c4cn(C)nc4C(F)(F)F)C3=O)c2c1,,Sprague Dawley rats,"oral, 50 mg/kg once daily, 7 days",,serum CK activity,109 ± 13.9 U/L
O=C(Nc1ccc(OC(F)(F)Cl)cc1)c1cnc(N2CC[C@@H](O)C2)c(-c2ccn[nH]2)c1,"per patient, item: hemoglobin decrease",human patients,"oral, dose not given, dose-finding study",,grade ≥3 event rate,7.1%
O=C(CCCN1CC=C(n2c(=O)[nH]c3ccccc32)CC1)c1ccc(F)cc1,,"male Hartley guinea pigs, anaesthetized","intravenous, 0.03 mg/kg over 10 min, after infusion",,heart rate,247 ± 0.9 beats/min
Nc1ccc(-c2ccncc2)cc1NC(=O)N1CCCC1,,"C57BL/6 mouse, male, plasma and brain","intraperitoneal, 10 mg/kg",,absorption rate constant (ka),6 h⁻¹
CCN(c1cc(-c2ccc(CN3CCOCC3)cc2)cc(C(=O)NCc2c(C)cc(C)[nH]c2=O)c1C)C1CCOCC1,,"mouse xenograft, liver",dose not given,,organ weight,648 mg
Fc1ccc(Nc2c(-c3ccccn3)nc3ccccn23)cc1,cytotoxicity,"peritoneal macrophages, Swiss mouse",5 days,,CC50,31.6 µM
O=C(c1ccccc1)c1ccc2n1CCC2C(=O)O (centres unmarked),,"New Zealand White rabbit, male, plasma","oral, 10 mg/kg drug equivalent",,MRT(0-inf),7.72 ± 0.12 h
C[C@@H](Nc1cc(F)cc(F)c1)c1cc(C(=O)N(C)C)cc2c(=O)cc(N3CCOCC3)oc12,"CTCAE v4, item: AST increased",patients with advanced solid tumours,"oral, dose not given, phase I dose finding",,patients discontinuing for AE,1.6%
O=C(O)c1ccc(O)c(OS(=O)(=O)O)c1,,human CSF,"concentration not given, mean",,CSF concentration,not detected
N#Cc1ccc2c(c1)[C@H]1CCCN(C(=O)c3ccc4[nH]cnc4c3)[C@H]1C2,,"human, female","80 mg, day 15",,androstenedione level,7.9 nmol/L
O=C1CCc2ccc(OCCCCN3CCN(c4cccc(Cl)c4Cl)CC3)cc2N1,,CYP2D6 intermediate metabolizers,"concentration not given, genotype-based phenotype, long-acting oral or depot",,cardiovascular symptom frequency,2.8%
CCOc1c([C@H](C)n2nc(C)c3c(N)ncnc32)cc(Cl)c(F)c1[C@@H]1CNC(=O)C1,item: QTcF change above 60 ms,previously treated B-cell malignancy,"oral, 5 mg once daily, baseline QTcF ≤450 ms",relative to: baseline,patients,0%
O=C(O)CCC(=O)O.[2H]C([2H])([2H])Oc1cc(C)c2[nH]ccc2c1CN1CC[C@@H](C2CC2)C[C@H]1c1ccc(C(=O)O)cc1,multiple ascending dose,healthy Chinese subjects,200 mg once daily,,subjects with any TEAE,75%
COc1c(N2C[C@@H]3CCCN[C@@H]3C2)c(F)cc2c(=O)c(C(=O)O)cn(C3CC3)c12,,"male Hartley guinea pigs, anaesthetized","intravenous, 10 mg/kg over 10 min, after infusion",,heart rate,198 ± 1.8 beats/min
Cc1ccc(C(=O)N(CCCN)C(c2nc3snc(C)c3c(=O)n2Cc2ccccc2)C(C)C)cc1 (centres unmarked),pneumonia grade ≥3 (CTCAE),human patients,"intravenous, 4 mg/day",,patients with adverse event,0%
Cc1ncnc2c1ccn2[C@@H]1C[C@H](Oc2cc(C(F)F)c(F)c3c2CNCC3)[C@@H](O)[C@H]1O,,human,"oral, 2 mg twice daily",,AUC(0-tau),305 ng·h/mL and 148 ng·h/mL
Cn1cnc2ccc(Nc3c(F)ccc(NS(=O)(=O)N4CC(F)C4)c3Cl)c(Cl)c2c1=O,,human,"dose not given, monotherapy, first-in-human",relative to: participants,incidence of blurred vision grade ≥3,1%
C[C@@H](O)CCOC(=O)C[C@@H](C)O,,human,"oral drink, dose not given, 30 min post dose, mean",,systolic blood pressure,112 mmHg
O=C(O)[C@H]1O[C@@H](Oc2ccccc2O)[C@H](O)[C@@H](O)[C@@H]1O,,human CSF,"concentration not given, mean",,CSF concentration,not detected
NC1(C(=O)N[C@@H](CCO)c2ccc(Cl)cc2)CCN(c2nc[nH]c3nccc2-3)CC1,,metastatic CRPC patients,"320 mg b.i.d., grade 3 to 4, treatment-related, added: enzalutamide 160 mg daily",,incidence of Dysgeusia,0%
OCc1nc2ccc(NCc3ccc(C(F)(F)F)cc3)cc2[nH]1,,"Balb/c mice, male, plasma","oral, 10 mg/kg",,terminal elimination rate constant,5.28e-05 ± 2.78e-05 s⁻¹
O=C1NCCc2nc(OCc3cccc(F)c3)ccc21,item: Vasodilatation,Sprague-Dawley rat male,"oral, 100 mg/kg, 4 h",direction not given,Irwin test score,0
CNc1ccc(-c2nc3ccc(O)cc3s2)cc1 [carbon-11 labelled],ex vivo biodistribution,"B6SJL mouse, normal, cortex","intravenous, 30 min",,SUV,0.132 ± 0.049
Cc1ccc(O)c(O)c1,,human CSF,"concentration not given, mean",,CSF concentration,not detected
Cc1cc(C)c(CNC(=O)c2cc(Cl)c3c(c2C)O[C@@](C)([C@H]2CC[C@H](N(C)C)CC2)O3)c(=O)[nH]1,,relapsed/refractory NHL patients,"oral, 200 mg once daily, onset after cycle 1 day 1",,adverse event Dyspnea,16.7%
Cc1nc2cccc(OCC(C)(C)C(=O)NC(C)C)c2c(N)c1C(=O)O,,"Sprague-Dawley rat, plasma","oral, 30 mg/kg, day 7, 7-day repeated dosing",relative to: female over male,Cmax ratio female over male,1.04 ± 0.6
Cn1cnc2c(F)c(Nc3ccc(Br)cc3Cl)c(C(=O)NOCCO)cc21,,"human, plasma","oral, dose not given, nonlinear absorption",,peripheral volume of distribution,57.6 L
COc1cc2nccc(Oc3ccc(NC(=O)c4cc5c(n(-c6ccccc6)c4=O)CCCC5=O)nc3)c2cc1OC,,"human, relapsed/refractory AML","oral, 3 mg once daily, grade ≥3, any causality",,patients with hypotension,0%
CCN1/C(=C/C(C)=O)Sc2ccc(F)cc21,,cynomolgus monkey,"oral, 30 mg/kg, 0.5 h post-dose",relative to: pre-dose,diastolic blood pressure change,99 ± 5.4%
COc1ccc([C@@H]2CC(=O)c3c(O)cc(O)cc3O2)cc1O,,human CSF,"concentration not given, mean",,CSF concentration,not detected
O=C(COc1ccc(Cl)cc1)NC12CC(c3nnc([C@H]4C[C@@H](OC(F)(F)F)C4)o3)(C1)C2,item: Fatigue,human,"200 mg once daily, 28 (unit not given)",,adverse event incidence,22.2%
NC/C(=C\F)COc1cccc(Cn2c(=S)[nH]c(=O)c3[nH]cnc32)c1,,rat hepatocytes,"1 µM, 1 h",,remaining compound,90%
CCO[C@H]1CCN(Cc2c(OC)cc(C)c3[nH]ccc23)[C@H](c2ccc(C(=O)O)cc2)C1,,"human mild hepatic impairment, plasma","oral, 200 mg single dose, median",,unbound AUCinf,5790 ng·h/mL
COc1cc(N)c(Cl)cc1C(=O)NC1CCN(CCCOc2ccc(F)cc2)CC1OC (centres unmarked),,"male Hartley guinea pigs, anaesthetized","intravenous, 1 mg/kg over 10 min, after infusion",,heart rate,202 ± 0.3 beats/min
Cc1c(Cl)c(C)[n+]([O-])c(Cl)c1-c1noc(-c2cc(O)c(O)c([N+](=O)[O-])c2)n1,,healthy subjects,"oral, dose not given, all subjects",,TEAEs causing discontinuation,2.9%
OCCOCc1ccc(-c2noc(-c3ccc(OCC[18F])c(C(F)(F)F)c3)n2)cc1,radio-HPLC,"Macaca mulatta, arterial plasma","180 min, radiotracer",,parent fraction in plasma,17 to 18%
CN(C(=O)n1cnc(-c2ccc[n+]([O-])c2)c1)[C@H]1CC[C@H](O)CC1,,"Wistar rat, midbrain","oral, 10 mg/kg/day of BIA 10-2474, 72 h, repeated 5 days",,concentration,13.8 ± 0.4 ng/g
Cc1cc(-c2nccc3c2ccn3CC(=O)Nc2ccc(-c3cnccn3)cn2)ccn1,,human,"15 mg once daily, multiple ascending dose",,subjects with Cough adverse event,0%
Cl.[2H]C([2H])([2H])CC(=O)c1cnc(NC(=O)C2CC2)cc1Nc1cccc(-c2ncn(C([2H])([2H])[2H])n2)c1OC,median,human,"oral, 10 mg once daily, day 1, fasted, liquid, multiple dose",,Tmax,0.8 h
COc1ccc([C@@H](O)c2cc(-c3ncnc4cc(N5CCOCC5)ccc34)c(F)cc2Cl)nn1,,locally advanced rectal cancer patients,"50 mg, added: capecitabine and radiotherapy",,drug-related lymphocyte count decrease,0%
CSc1cc(C)nc(SC)c1NC(=O)CN1CCN(CCSc2nc3ccccc3[nH]2)CC1,,"mouse Crl:CD1 (ICR), female, cerebrum","intranasal, 50 µL of 3.24 mg/mL solution, daily for 7 days, 120 min, 0.01 N HCl solution vehicle",,concentration,2.3 ng/g
CNC(=O)c1ccc(-c2cnc3ncc(Cc4ccc5ncccc5c4)n3n2)cc1F,"CTCAE v4.0, any causality",human cancer patients,"oral, 600 mg twice daily, expansion, other tumours, RP2D",,peripheral edema incidence (all grades),28%
CC(C)C[C@H](NC(=O)CNC(=O)c1cc(Cl)ccc1Cl)B(O)O,,newly diagnosed multiple myeloma patients,"oral, dose not given, Fatigue, maintenance",,adverse events grade 3,0%
C=CC(=O)NC1CCN(c2ncc3ncnc(Nc4ccc(Oc5ccc6c(c5)ncn6C)c(C)c4)c3n2)CC1,,"healthy male volunteers, plasma","oral, 60 mg, 14C-labelled solution, geometric mean",,AUC(0-tz),14.1 µM·h
CCC(C)n1ncn(-c2ccc(N3CCN(c4ccc(OCC5COC(Cn6cncn6)(c6ccc(Cl)cc6Cl)O5)cc4)CC3)cc2)c1=O (centres unmarked),,healthy human volunteers,"oral, 200 mg, compound alone cohort",,incidence of infections,7%
CC(C)(C)c1ccc(O)c(CN(Cc2cc(C(C)(C)C)ccc2O)C2CCC(NC(N)=O)CC2)c1 (centres unmarked),,"C57BL/6 mice, male, plasma","intraperitoneal, 10 mg/kg, single dose",,terminal elimination rate constant,7.78e-05 s⁻¹
CN(C(=O)n1cnc(-c2cccnc2)c1)C1CCCCC1,,"Wistar rat, medulla oblongata","oral, 10 mg/kg, 24 h, single dose",,tissue concentration,6 ± 3 ng/g
C[C@@H](N)C1CCN(S(=O)(=O)c2cccc3cnccc23)CC1,,healthy volunteers,"150 mg, fed",,treatment-related TEAE incidence,30%
C[C@@H](Oc1ccc(S(C)(=O)=O)cc1C(=O)N1C[C@@H]2C[C@]2(c2cc(C(F)(F)F)on2)C1)C(F)(F)F,,human,"oral, 25 mg",,incidence of Diarrhea,16.7%
COc1ccc2[nH]c([S+]([O-])Cc3ncc(C)c(OC)c3C)nc2c1 (centres unmarked),,"healthy Chinese volunteers CYP2C19 IM, plasma","oral, 20 mg single dose, enteric-coated tablets",,AUC(0-t),833 ± 499 ng·h/mL
Oc1ccc(/C=C/c2cc(O)cc(O)c2)cc1,,"rat, azoxymethane-injected, blood","in vivo, 10 mg/kg, at sacrifice",,LDL-C level,4 mg/dL and 3 mg/dL
CC1=NN(c2ccccc2)C(=O)C1,,"rat Sprague-Dawley pups PN4, left cerebral cortex","intraperitoneal, 30 mg/kg, 1 h",,tissue concentration,290 ± 76.1 ng/mL
Cc1cc(NC2CCN(C(=O)OC3CCN(C(=O)/C=C/CN(C)C)C3)CC2)n2ncc(C(C)C)c2n1 (centres unmarked),"CTCAE v4.0, item: Hyponatremia",patients with advanced solid tumours,"oral, dose not given, all schedules, grade 3 or higher",,patients with TEAE,4%
COC(=O)N[C@H](C(=O)N[C@@H](Cc1ccccc1)[C@@H](O)CN(Cc1ccc(-c2ccccn2)cc1)NC(=O)[C@@H](NC(=O)OC)C(C)(C)C)C(C)(C)C,,"50 mM phosphate buffer, 100 µg/mL HPMCAS","pH 6.5, 37 °C, average of three methods",,amorphous solubility,39.2 µg/mL
COc1cc(Nc2ncc3c(n2)-c2ccc(Cl)cc2C(c2c(F)cccc2OC)=NC3)ccc1C(=O)O,"item: Hyperkalemia, grade 1","cancer patients, phase 1/2","oral, dose not given, added: pembrolizumab",,patients with adverse event,13%
CNCc1ccc(-c2[nH]c3cc(F)cc4c3c2CCNC4=O)cc1,,patients,"oral, 840 mg twice daily, all grades",,abdominal pain incidence,33.3%

# Some of these lines once more:
Structure (SMILES),test,system,setting,scale,endpoint,result
OCc1nc2ccc(NCc3ccc(C(F)(F)F)cc3)cc2[nH]1,,"Balb/c mice, male, plasma","oral, 10 mg/kg",,terminal elimination rate constant,5.28e-05 ± 2.78e-05 s⁻¹
NC/C(=C\F)COc1cccc(Cn2c(=S)[nH]c(=O)c3[nH]cnc32)c1,,rat hepatocytes,"1 µM, 1 h",,remaining compound,90%
Cc1ccc(C(=O)N(CCCN)C(c2nc3snc(C)c3c(=O)n2Cc2ccccc2)C(C)C)cc1 (centres unmarked),pneumonia grade ≥3 (CTCAE),human patients,"intravenous, 4 mg/day",,patients with adverse event,0%
